Results pooled from the literature.
Numbered parts are unrelated; each lists some results of a single study. Several values in a cell are separate wells, animals, samples, runs or records.
Sequence of UniProt O15075 (whole entry, looked up): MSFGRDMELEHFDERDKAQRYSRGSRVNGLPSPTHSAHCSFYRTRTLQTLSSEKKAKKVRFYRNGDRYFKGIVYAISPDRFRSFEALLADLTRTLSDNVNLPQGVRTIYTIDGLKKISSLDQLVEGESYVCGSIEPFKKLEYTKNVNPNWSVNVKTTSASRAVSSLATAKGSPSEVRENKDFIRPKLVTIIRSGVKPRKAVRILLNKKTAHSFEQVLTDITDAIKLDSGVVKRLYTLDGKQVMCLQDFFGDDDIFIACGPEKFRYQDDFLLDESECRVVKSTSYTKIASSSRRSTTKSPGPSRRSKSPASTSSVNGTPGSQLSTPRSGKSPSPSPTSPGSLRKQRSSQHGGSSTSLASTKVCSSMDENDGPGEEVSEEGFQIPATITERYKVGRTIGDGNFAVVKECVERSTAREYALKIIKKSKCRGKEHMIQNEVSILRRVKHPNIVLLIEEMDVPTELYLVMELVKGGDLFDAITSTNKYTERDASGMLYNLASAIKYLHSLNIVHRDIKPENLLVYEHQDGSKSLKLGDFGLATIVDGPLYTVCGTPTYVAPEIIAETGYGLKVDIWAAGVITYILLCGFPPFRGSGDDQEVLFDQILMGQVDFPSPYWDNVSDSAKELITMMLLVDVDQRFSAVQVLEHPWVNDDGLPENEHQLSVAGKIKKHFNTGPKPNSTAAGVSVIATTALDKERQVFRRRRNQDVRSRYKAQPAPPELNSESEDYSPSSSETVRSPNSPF
Sequence of UniProt Q9UK32 (whole entry, looked up): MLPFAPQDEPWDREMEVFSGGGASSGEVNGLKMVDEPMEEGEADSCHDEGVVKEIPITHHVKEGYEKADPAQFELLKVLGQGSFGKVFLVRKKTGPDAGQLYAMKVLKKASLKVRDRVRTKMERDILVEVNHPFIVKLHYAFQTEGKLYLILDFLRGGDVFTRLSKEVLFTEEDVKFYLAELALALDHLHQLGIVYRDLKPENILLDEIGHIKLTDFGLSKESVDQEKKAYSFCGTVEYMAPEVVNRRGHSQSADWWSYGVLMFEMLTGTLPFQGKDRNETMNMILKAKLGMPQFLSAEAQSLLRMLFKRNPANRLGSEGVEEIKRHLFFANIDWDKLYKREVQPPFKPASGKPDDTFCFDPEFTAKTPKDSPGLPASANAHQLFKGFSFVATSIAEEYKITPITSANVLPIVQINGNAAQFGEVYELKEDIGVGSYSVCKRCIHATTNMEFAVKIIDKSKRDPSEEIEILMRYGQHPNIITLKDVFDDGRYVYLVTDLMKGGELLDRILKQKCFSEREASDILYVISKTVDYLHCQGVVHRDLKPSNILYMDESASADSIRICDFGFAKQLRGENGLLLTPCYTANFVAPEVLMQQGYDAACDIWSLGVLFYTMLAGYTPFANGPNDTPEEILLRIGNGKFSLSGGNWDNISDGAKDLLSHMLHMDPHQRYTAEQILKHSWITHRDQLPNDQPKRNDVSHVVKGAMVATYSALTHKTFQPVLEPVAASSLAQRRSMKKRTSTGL
Sequence of UniProt P45983 (whole entry, looked up): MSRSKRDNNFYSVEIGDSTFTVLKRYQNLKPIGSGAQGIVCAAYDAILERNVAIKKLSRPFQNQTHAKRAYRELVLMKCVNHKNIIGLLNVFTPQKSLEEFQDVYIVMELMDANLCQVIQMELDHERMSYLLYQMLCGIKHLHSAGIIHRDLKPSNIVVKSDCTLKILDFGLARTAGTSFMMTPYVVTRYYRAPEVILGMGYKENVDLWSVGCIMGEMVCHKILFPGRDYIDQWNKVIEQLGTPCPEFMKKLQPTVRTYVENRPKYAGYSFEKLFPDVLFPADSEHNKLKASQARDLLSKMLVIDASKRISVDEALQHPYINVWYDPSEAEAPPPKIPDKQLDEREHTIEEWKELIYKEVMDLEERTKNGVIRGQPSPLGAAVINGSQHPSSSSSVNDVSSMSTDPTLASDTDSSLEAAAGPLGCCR
Sequence of UniProt Q6DT37 (whole entry, looked up): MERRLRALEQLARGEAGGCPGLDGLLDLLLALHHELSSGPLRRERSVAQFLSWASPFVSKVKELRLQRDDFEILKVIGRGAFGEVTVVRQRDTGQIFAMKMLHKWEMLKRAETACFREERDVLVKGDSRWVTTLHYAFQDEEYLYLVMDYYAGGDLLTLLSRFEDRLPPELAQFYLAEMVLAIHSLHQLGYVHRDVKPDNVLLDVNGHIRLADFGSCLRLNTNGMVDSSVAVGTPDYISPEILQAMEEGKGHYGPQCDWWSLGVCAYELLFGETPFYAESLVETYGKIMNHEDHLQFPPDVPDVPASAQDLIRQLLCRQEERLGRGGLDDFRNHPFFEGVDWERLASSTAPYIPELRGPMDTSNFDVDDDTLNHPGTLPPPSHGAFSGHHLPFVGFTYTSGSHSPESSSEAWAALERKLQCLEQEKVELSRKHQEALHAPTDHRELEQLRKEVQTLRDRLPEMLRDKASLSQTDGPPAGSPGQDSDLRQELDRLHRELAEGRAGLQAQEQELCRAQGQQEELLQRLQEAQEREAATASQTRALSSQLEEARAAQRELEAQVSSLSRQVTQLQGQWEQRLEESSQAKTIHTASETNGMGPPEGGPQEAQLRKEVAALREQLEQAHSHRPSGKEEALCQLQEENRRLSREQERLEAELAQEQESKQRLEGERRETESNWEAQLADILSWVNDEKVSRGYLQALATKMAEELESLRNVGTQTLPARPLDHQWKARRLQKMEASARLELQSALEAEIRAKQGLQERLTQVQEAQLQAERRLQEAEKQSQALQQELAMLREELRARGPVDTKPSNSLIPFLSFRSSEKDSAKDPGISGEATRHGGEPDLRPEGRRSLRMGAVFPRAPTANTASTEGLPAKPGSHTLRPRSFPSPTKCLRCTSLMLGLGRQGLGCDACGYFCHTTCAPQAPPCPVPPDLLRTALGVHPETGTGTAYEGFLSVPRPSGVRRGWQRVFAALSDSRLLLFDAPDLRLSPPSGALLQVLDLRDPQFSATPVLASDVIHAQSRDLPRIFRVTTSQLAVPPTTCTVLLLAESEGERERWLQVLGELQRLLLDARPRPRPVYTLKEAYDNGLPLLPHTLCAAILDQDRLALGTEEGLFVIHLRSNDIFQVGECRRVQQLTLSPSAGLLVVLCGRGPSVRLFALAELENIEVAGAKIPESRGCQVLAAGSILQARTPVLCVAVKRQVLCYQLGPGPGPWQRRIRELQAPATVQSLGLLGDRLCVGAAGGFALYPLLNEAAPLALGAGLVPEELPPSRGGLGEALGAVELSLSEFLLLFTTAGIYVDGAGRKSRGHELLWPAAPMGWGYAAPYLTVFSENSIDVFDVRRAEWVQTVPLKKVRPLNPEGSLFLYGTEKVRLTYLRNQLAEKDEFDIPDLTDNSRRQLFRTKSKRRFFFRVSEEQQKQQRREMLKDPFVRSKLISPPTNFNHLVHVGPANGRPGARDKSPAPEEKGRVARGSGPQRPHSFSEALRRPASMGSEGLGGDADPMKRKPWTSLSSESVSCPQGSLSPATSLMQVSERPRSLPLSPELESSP
Sequence of UniProt P10721 (whole entry, unmodified, looked up): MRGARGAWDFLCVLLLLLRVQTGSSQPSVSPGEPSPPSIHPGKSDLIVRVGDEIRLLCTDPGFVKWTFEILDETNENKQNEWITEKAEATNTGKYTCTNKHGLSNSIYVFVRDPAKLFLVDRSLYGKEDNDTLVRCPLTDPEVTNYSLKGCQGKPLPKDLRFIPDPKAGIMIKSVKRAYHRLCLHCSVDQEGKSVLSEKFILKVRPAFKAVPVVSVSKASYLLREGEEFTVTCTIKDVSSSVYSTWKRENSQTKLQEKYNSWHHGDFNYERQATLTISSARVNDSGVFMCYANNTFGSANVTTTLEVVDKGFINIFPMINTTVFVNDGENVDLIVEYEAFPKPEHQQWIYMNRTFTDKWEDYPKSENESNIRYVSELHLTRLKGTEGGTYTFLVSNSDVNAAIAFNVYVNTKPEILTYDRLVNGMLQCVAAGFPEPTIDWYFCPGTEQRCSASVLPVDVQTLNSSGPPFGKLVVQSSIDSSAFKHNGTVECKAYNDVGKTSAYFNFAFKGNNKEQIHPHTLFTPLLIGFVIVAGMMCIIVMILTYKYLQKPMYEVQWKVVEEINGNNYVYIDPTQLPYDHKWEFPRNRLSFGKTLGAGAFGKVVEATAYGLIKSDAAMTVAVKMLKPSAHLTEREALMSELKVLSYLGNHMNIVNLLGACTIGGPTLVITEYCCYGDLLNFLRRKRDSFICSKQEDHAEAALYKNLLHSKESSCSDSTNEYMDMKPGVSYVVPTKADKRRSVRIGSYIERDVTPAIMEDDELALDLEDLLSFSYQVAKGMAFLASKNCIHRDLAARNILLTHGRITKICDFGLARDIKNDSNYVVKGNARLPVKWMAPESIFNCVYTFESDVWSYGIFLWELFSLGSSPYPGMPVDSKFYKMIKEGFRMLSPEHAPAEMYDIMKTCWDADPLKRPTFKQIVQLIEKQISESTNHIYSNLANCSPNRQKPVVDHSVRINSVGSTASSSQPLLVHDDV

Set 1 — read-out: enzyme activity; mode: inhibitor; concentration: 0.5 µM; baseline: control
Target: Dual specificity tyrosine-phosphorylation-regulated kinase 2 (DYRK2, Homo sapiens, UniProt Q92630)
Sequence of UniProt Q92630 (whole entry, looked up): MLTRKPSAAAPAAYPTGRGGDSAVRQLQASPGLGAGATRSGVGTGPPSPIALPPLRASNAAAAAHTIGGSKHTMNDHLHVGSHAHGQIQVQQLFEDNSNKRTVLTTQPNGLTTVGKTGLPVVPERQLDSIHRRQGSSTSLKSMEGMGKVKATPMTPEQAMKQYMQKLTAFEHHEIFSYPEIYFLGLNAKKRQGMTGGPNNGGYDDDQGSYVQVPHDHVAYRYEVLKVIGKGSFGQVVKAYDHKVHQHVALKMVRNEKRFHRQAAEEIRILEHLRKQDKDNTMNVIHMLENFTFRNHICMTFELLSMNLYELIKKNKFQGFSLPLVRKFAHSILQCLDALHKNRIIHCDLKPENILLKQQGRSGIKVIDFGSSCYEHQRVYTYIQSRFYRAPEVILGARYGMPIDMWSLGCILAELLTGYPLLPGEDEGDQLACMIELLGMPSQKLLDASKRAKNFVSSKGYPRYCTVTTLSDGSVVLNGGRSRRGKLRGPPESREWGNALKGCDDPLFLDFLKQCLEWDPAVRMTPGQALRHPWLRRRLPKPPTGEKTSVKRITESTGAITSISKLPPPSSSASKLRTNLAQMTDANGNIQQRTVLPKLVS
| SMILES | remaining activity |
| --- | --- |
| CSc1nc(-c2ccnc(N[C@@H](C)c3ccccc3)c2)c(-c2ccc(F)cc2)[nH]1 (racemic) | 96.1% |
| COc1ccc(S(=O)(=O)N(CCO)c2ccccc2CN(C)CC=Cc2ccc(Cl)cc2)cc1 | 87.5% |
| CCCC(=O)Oc1ccc2[nH]c(C(=O)c3cc4ccccc4[nH]3)cc2c1 | 91.8% |
| O=C1Cc2c([nH]c3ccc([N+](=O)[O-])cc23)-c2ccccc2N1 | 72% |
| NC(=O)c1ccc(N(C(N)=O)c2c(F)cccc2F)nc1-c1ccc(F)cc1F | 102% |
| COc1cc(Nc2c(C#N)cnc3cc(OCCCN4CCN(C)CC4)c(OC)cc23)c(Cl)cc1Cl | 104% |
| CC[n+]1c(/C=C/N(C)c2ccccc2)n(-c2ccccc2)c2ccc(-c3nc4ccccc4s3)cc21 | 105% |
| Nc1ncnc2c1cnn2-c1ccccc1 | 95.6% |
| CCc1[nH]c(-c2ccc(OC)cc2)nc1-c1ccncc1 | 85.8% |
| N#CC(=C(N)Sc1ccc(N)cc1)c1ccccc1C(F)(F)F | 96.6% |
| CC(=O)c1ccc(N2CCOCC2)cc1O | 101% |
| Nc1nccc(-c2c(-c3ccc(F)cc3)ncn2C2CCNCC2)n1 | 95.9% |
| Oc1ccc(Nc2nc(-c3ccc(Cl)cc3)cs2)cc1 | 91.2% |
| Nc1nc(Nc2ccc(S(N)(=O)=O)cc2)nn1C(=O)c1c(F)cccc1F | 112% |
| CC#CC(=O)Nc1cc2c(Nc3ccc(F)c(Cl)c3)ncnc2cn1 | 91.3% |
| O=S(=O)(NCCNC/C=C/c1ccc(Br)cc1)c1cccc2cnccc12 | 95.2% |
| Cc1cncc2cccc(S(=O)(=O)N3CCCN(C(=O)CN)C[C@@H]3C)c12 | 101% |
| Cc1cc(Nc2nc(-c3ccccc3)nc3ccccc23)n[nH]1 | 84% |
| Cc1ccc(NC2=CC(=O)c3sc(C)nc3C2=O)cc1 | 109% |
| CC(C)(C)n1nc(Cc2cccc3ccccc23)c2c(N)ncnc21 | 98.9% |
| Fc1ccc(-c2nc3n(c2-c2ccncc2)CCS3)cc1 | 101% |
| O=C1NC(=O)C(c2c[nH]c3ccccc23)=C1c1c[nH]c2ccccc12 | 97.7% |

Set 2 — concentration: 1 µM
Structure (SMILES): O=C(Nc1cnc(Oc2ccc(F)cc2)nc1)N1CCc2ncccc2[C@@H]1c1ccc(F)cc1
| target | read-out | method | remaining binding [%] |
| --- | --- | --- | --- |
| eIF-2-alpha kinase GCN2, C-terminal kinase domain (EIF2AK4, Homo sapiens, UniProt Q9P2K8, S808G) | cell-free assay | competition with immobilised ligand | 85 |
| Mitogen-activated protein kinase 8 (MAPK8, Homo sapiens, UniProt P45983) | cell-free assay | competition with immobilised ligand | 83 |
| Mast/stem cell growth factor receptor Kit (KIT, Homo sapiens, UniProt P10721, V559D) | cell-free assay | competition with immobilised ligand | 100 |
| Ribosomal protein S6 kinase alpha-6, N-terminal kinase domain (RPS6KA6, Homo sapiens, UniProt Q9UK32) | cell-free assay | competition with immobilised ligand | 100 |
| Serine/threonine-protein kinase MRCK gamma (CDC42BPG, Homo sapiens, UniProt Q6DT37) |  | competition binding | 98 |
| Myosin light chain kinase (MYLK3, Homo sapiens, UniProt Q32MK0) | cell-free assay | competition with immobilised ligand | 89 |
| Dual specificity tyrosine-phosphorylation-regulated kinase 2 (DYRK2, Homo sapiens, UniProt Q92630) | cell-free assay | competition with immobilised ligand | 81 |
| Inhibitor of nuclear factor kappa-B kinase subunit beta (IKBKB, Homo sapiens, UniProt O14920) | cell-free assay | competition with immobilised ligand | 100 |
| NUAK family SNF1-like kinase 1 (NUAK1, Homo sapiens, UniProt O60285) | cell-free assay | competition with immobilised ligand | 95 |
| Phosphatidylinositol 3-kinase C2 domain-containing subunit gamma (PIK3C2G, Homo sapiens, UniProt O75747) | cell-free assay | competition with immobilised ligand | 97 |
| Serine/threonine-protein kinase WNK1 (WNK1, Homo sapiens, UniProt Q9H4A3) | cell-free assay | competition with immobilised ligand | 100 |
| Serine/threonine-protein kinase RIO1 (RIOK1, Homo sapiens, UniProt Q9BRS2) | cell-free assay | competition with immobilised ligand | 89 |
| Protein kinase C epsilon type (PRKCE, Homo sapiens, UniProt Q02156) | cell-free assay | competition with immobilised ligand | 100 |
| Phosphatidylinositol 4-phosphate 5-kinase type-1 gamma (PIP5K1C, Homo sapiens, UniProt O60331) | cell-free assay | competition with immobilised ligand | 100 |
| ALK tyrosine kinase receptor (ALK, Homo sapiens, UniProt Q9UM73, L1196M) | cell-free assay | competition with immobilised ligand | 100 |
| Calcium/calmodulin-dependent protein kinase type 1G (CAMK1G, Homo sapiens, UniProt Q96NX5) | cell-free assay | competition with immobilised ligand | 97 |
| Protein kinase C theta type (PRKCQ, Homo sapiens, UniProt Q04759) | cell-free assay | competition with immobilised ligand | 94 |
| Serine/threonine-protein kinase 17A (STK17A, Homo sapiens, UniProt Q9UEE5) | cell-free assay | competition with immobilised ligand | 85 |
| Casein kinase I isoform gamma-3 (CSNK1G3, Homo sapiens, UniProt Q9Y6M4) | cell-free assay | competition with immobilised ligand | 87 |
| Serine/threonine-protein kinase DCLK1 (DCLK1, Homo sapiens, UniProt O15075) | cell-free assay | competition with immobilised ligand | 83 |

Set 3 — route: subcutaneous; time: 5 days
Structure (SMILES): CC(=O)N[C@@H](Cc1c[nH]c2ccccc12)C(=O)N[C@@H](CCC(=O)C=[N+]=[N-])C(=O)OC(C)C
| assay | test system | conditions | scale | metabolite peak intensity |
| --- | --- | --- | --- | --- |
| UPLC-MS/MS metabolomics, measured: glucose 6-phosphate | C57BL/6 CES1-/- mice, EL4 tumour, EL4 tumour | 0.3 mg/kg/day DON equivalent, normalised to tissue mass |  | 6.94e+07 a.u. and 4.52e+07 a.u. and 7.2e+07 a.u. and 6.39e+07 a.u. and 5.98e+07 a.u. and 5.73e+07 a.u. |
| UPLC-MS/MS, measured: heme | EL4, C57BL/6 CES1-/- mice, EL4 tumour, tumour | 0.3 mg/kg/day DON equivalent, normalised to tissue mass | higher = more metabolite | 1.46e+07 a.u. and 1.86e+06 a.u. and 4.18e+06 a.u. and 2.94e+06 a.u. and 8.78e+06 a.u. and 1.63e+07 a.u. |
| UPLC-MS/MS metabolomics, measured: gamma-glutamylisoleucine | C57BL/6 CES1-/- mice, EL4 tumour, EL4 tumour | 0.3 mg/kg/day DON equivalent, normalised to tissue mass |  | 318000 a.u. and 279000 a.u. and 178000 a.u. and 111000 a.u. and 336000 a.u. |
| LC-MS/MS, measured: carotene diol (1) | C57BL/6 CES1-/- mice, EL4 tumour | 0.3 mg/kg DON equivalent |  | 123000 a.u. and 290000 a.u. and 278000 a.u. and 298000 a.u. and 173000 a.u. and 242000 a.u. |
| UPLC-MS/MS metabolomics, measured: N-acetylglucosamine/N-acetylgalactosamine | C57BL/6 CES1-/- mice, EL4 tumour, EL4 tumour | 0.3 mg/kg/day DON equivalent, normalised to tissue mass | higher = more metabolite | 1.03e+07 a.u. and 1.12e+07 a.u. and 8.48e+06 a.u. and 7.02e+06 a.u. and 8.41e+06 a.u. and 1.13e+07 a.u. |
| UPLC-MS/MS, measured: homocitrulline | EL4, C57BL/6 CES1-/- mice, EL4 tumour, tumour | 0.3 mg/kg/day DON equivalent, normalised to tissue mass | higher = more metabolite | 1.01e+06 a.u. and 886000 a.u. and 952000 a.u. and 1.28e+06 a.u. and 802000 a.u. and 1.53e+06 a.u. |
| LC-MS/MS metabolomics, measured: methionine sulfoxide | C57BL/6 CES1-/- mice, EL4 tumour, EL4 tumour | 0.3 mg/kg/day DON equivalent | higher = more metabolite | 5.25e+07 a.u. and 4.75e+07 a.u. and 4.3e+07 a.u. and 5.57e+07 a.u. and 5.08e+07 a.u. and 4.22e+07 a.u. |
| UPLC-MS/MS metabolomics, measured: gamma-glutamyl-alpha-lysine | C57BL/6 CES1-/- mice, EL4 tumour, EL4 tumour | 0.3 mg/kg/day DON equivalent, normalised to tissue mass |  | 418000 a.u. and 434000 a.u. and 383000 a.u. and 506000 a.u. and 530000 a.u. and 382000 a.u. |
| UPLC-MS/MS metabolomics, measured: gamma-glutamylvaline | C57BL/6 CES1-/- mice, EL4 tumour, EL4 tumour | 0.3 mg/kg/day DON equivalent, normalised to tissue mass |  | 1.2e+06 a.u. and 703000 a.u. and 1.07e+06 a.u. and 844000 a.u. and 744000 a.u. and 858000 a.u. |
| UPLC-MS/MS metabolomics, measured: glucose | C57BL/6 CES1-/- mice, EL4 tumour, EL4 tumour | 0.3 mg/kg/day DON equivalent, normalised to tissue mass |  | 3.36e+08 a.u. and 5.57e+08 a.u. and 2.4e+08 a.u. and 1.31e+08 a.u. and 2.49e+08 a.u. and 9.59e+08 a.u. |

Set 4 — cell line: mouse MPNST tumor cells; method: high-content nuclear imaging; measured: cell number; concentration: 10 µM; time: 12 h; setting: mean of 2 replicates; baseline: plate mean; direction: higher = more cells
| Compound | nuclei count [z-score] |
| --- | --- |
| CN1CCC(=C2c3ccccc3Sc3ccccc32)CC1 | 1.99 |
| CNCCc1ccccn1 | 1.62 |
| CO/N=C1\CN(c2nc3c(cc2F)c(=O)c(C(=O)O)cn3C2CC2)CC1CN (stereo not drawn) | 1.15 |
| CC(C)C[C@H](NC(=O)[C@@H](O)[C@H](N)Cc1ccccc1)C(=O)O | 0.499 |
| CC(C)C(=O)OCC(=O)[C@@]12O[C@H](C3CCCCC3)O[C@@H]1C[C@H]1[C@@H]3CCC4=CC(=O)C=C[C@]4(C)[C@H]3[C@@H](O)C[C@@]12C | 6.76 |
| CN1C(=O)C(Cc2c[nH]c3ccccc23)NC1=S (stereo not drawn) | -0.0183 |
| N#C[C@H](Cc1ccc(O)cc1)c1ccc(O)cc1 | 1.17 |
| COc1cc2c(CCNC(C)=O)c[nH]c2cc1Cl | 1.13 |
| CC(C)(C)n1nc(-c2ccc(Cl)cc2)c2c(N)ncnc21 | -0.495 |
| O=C(O)CCCC[C@@H]1SC[C@@H]2NC(=O)N[C@@H]21 | 2.92 |
| C[C@H]1COc2c(N3CCN(C)CC3)c(F)cc3c(=O)c(C(=O)O)cn1c23 | 1.62 |

A few entries again (set 2):
| target | read-out | method | remaining binding [%] |
| --- | --- | --- | --- |
| eIF-2-alpha kinase GCN2, C-terminal kinase domain (EIF2AK4, Homo sapiens, UniProt Q9P2K8, S808G) | cell-free assay | competition with immobilised ligand | 85 |
| Mitogen-activated protein kinase 8 (MAPK8, Homo sapiens, UniProt P45983) | cell-free assay | competition with immobilised ligand | 83 |
| Mast/stem cell growth factor receptor Kit (KIT, Homo sapiens, UniProt P10721, V559D) | cell-free assay | competition with immobilised ligand | 100 |
| Ribosomal protein S6 kinase alpha-6, N-terminal kinase domain (RPS6KA6, Homo sapiens, UniProt Q9UK32) | cell-free assay | competition with immobilised ligand | 100 |
| Serine/threonine-protein kinase MRCK gamma (CDC42BPG, Homo sapiens, UniProt Q6DT37) |  | competition binding | 98 |
| Myosin light chain kinase (MYLK3, Homo sapiens, UniProt Q32MK0) | cell-free assay | competition with immobilised ligand | 89 |
